Results from different studies.
Each numbered part is a random draw from the data of one study; scales do not carry over between parts. Substitutions count along the parent as printed.

Set 1 — technique: protein-binding microarray; molecule type: double-stranded DNA, one strand shown; matrix: in vitro; tested at: 250 nM; setting: 60-bp whole probe; added: salmon DNA 0.4 mg/ml; baseline: random background probes; direction: higher = stronger binding; shared flanks, not repeated: GCCTAGCAC … GTCTTGATTCGCTTGACGCTGCTG
Target: Interferon regulatory factor 7, full length, phosphomimetic (IRF7, Homo sapiens, UniProt Q92985, residues 1-503, S101K/S471D/S472D/S475D/S476D/S477D/S483D/S484D/S487D)
UniProt Q92985, sequence (whole entry, unmodified, looked up): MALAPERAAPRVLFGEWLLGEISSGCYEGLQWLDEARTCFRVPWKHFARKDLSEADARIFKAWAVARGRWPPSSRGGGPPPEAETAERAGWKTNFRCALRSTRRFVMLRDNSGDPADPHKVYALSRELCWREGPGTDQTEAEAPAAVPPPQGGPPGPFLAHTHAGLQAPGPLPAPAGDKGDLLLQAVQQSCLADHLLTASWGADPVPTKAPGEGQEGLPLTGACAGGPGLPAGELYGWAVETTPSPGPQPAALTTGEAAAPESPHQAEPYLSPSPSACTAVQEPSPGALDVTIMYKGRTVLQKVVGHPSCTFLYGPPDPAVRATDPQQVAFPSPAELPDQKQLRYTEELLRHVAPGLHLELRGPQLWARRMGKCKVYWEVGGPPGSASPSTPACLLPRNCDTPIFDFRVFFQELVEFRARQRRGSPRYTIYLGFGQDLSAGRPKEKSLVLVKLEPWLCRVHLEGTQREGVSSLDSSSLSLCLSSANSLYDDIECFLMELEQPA
Strand	log fluorescence
TTAGGTCTCGGCCTCGGTTAGTGCTAG	0.851 z-score
GGCGATATCAGACTGGAGACGTGCTAG	-0.816 z-score
TTAGGAATCCTTCTCCTTTAGTGCTAG	-0.0842 z-score
TCATTTTTACCTGTGGTACTGTGCTAG	0.481 z-score
GACGGGCTGCTTATCCTGACGTGCTAG	-0.809 z-score
CACGATCTCAGACTGGAGACGTGCTAG	-0.109 z-score
GACGATCTCACTATCGAGACGTGCTAG	0.172 z-score
TCATTTTTAGAAATTTTTACTGTGCTA	1.14 z-score
ATCAGTTTAATATCTAAGATTGTGCTA	0.319 z-score
TTAGGTCTCGGTTTCGGTAAGTGCTAG	8.52 z-score
TCATCCTCCTCTCTCTTACTGTGCTAG	1.14 z-score
TTAGGACTGCTAGTGCTTTAGTGCTAG	-0.698 z-score
TTAGGTTTTGGTTCCGGTTAGTGCTAG	4.04 z-score
GACGGTATCGGATATCGGGACGTGCTA	0.23 z-score
GACGGGTTCCTTTTCCTGACGTGCTAG	1.98 z-score
GACGGTCTCGTACTGGGGACGTGCTAG	0.213 z-score
GCCGGTATCGACTATCGGGACGTGCTA	-0.0143 z-score
GACGATCTCATTATCGAGACGTGCTAG	-0.0215 z-score
AGGCTCATACATCTGGGTGGGTGCTAG	0.33 z-score
GAGGGTATCCTTATCCTGACGTGCTAG	-0.161 z-score
GACGAACAGAGTCTCGAGACGTGCTAG	0.45 z-score

Set 2 — technique: RNA Bind-n-Seq; molecule type: RNA; matrix: in vitro; tested at: 200 nM; setting: whole 134-nt RNA, ends assumed; added: 150 mM KCl; baseline: input library; direction: higher = stronger binding
Target: Ras GTPase-activating protein-binding protein 1, full length (G3BP1, Homo sapiens, UniProt Q13283)
UniProt Q13283, sequence (whole entry, looked up): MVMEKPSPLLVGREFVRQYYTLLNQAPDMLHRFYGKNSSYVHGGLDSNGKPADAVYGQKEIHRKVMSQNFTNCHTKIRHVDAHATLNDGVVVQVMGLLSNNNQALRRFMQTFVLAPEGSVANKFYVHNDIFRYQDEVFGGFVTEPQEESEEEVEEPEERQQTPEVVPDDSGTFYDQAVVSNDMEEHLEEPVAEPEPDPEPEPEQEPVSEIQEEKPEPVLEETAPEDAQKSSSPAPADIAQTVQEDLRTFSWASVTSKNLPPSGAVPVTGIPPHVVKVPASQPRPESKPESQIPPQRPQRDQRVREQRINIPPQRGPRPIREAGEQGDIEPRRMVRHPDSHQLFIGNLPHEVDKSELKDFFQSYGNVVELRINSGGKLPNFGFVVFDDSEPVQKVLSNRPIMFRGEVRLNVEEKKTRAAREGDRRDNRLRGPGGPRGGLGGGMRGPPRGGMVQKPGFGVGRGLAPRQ
Shared flanks, not repeated: GGGAGUUCUACAGUCCGACGAUC … UGGAAUUCUCGGGUGUCAAGG
Strand	log2 enrichment
UCAAGUCCUGUGCUACACAUCGUAUGUACCGAAUCGGGAAAGGGUGGGAAAGGGAAAGUAUUAUGUUACGCCGUUCGGAUCUGCACUUCC	1.04
AAGUCCUGUGCUACACAUCGUAUGUACCGAAUCGGUUUUGGGUUUUGGGGUUUUGGGAAAGUAUUAUGUUACGCCGUUCGGAUCUGCACU	-0.742
CAAGUCCUGUGCUACACAUCGUAUGUACCGAAUCGGGUGGGUUUUUGGGUUUGGGAAAGUAUUAUGUUACGCCGUUCGGAUCUGCACUUC	0.238
CCUGUGCUACACAUCGUAUGUACCGAAUCGGCCCCCCCGGCCCCCCCGGGCCCCCCCGGGAAAGUAUUAUGUUACGCCGUUCGGAUCUGC	0.14
CCUGUGCUACACAUCGUAUGUACCGAAUCGGCCCCCCCGGGCCCCCCCGGGCCCCCCCGGGAAAGUAUUAUGUUACGCCGUUCGGAUCUG	-0.6
AGUCCUGUGCUACACAUCGUAUGUACCGAAUCGGGGUUUUUGGUUUUUGGUUUUUGGGAAAGUAUUAUGUUACGCCGUUCGGAUCUGCAC	-1.13
UCAAGUCCUGUGCUACACAUCGUAUGUACCGAAUCGGGUUUGGGUUUGGGUUUGGAAAGUAUUAUGUUACGCCGUUCGGAUCUGCACUUC	-0.573
UAACUUUAGAGGAGGAUCUGAUGGAUAUGGCAGUGGACGUGGAUUUGGGGAUGGCUAUAAUGGGUAUGGGGGAGGACCUGGAGGUGGCAA	0.569
AAGUCCUGUGCUACACAUCGUAUGUACCGAAUCGGUUUUUUUGGAAAGGAAAAAGGAAAGUAUUAUGUUACGCCGUUCGGAUCUGCACUU	-1.5
GUCCUGUGCUACACAUCGUAUGUACCGAAUCGGGGAAAGGGGAAAGGGGUUUUUGGGGAAAGUAUUAUGUUACGCCGUUCGGAUCUGCAC	0.483
UCCUGUGCUACACAUCGUAUGUACCGAAUCAAAUUUUUUUAAACCCCCAAAUUUUUAAAAAAGUAUUAUGUUACGCCGUUCGGAUCUGCA	0.179
CAAGUCCUGUGCUACACAUCGUAUGUACCGAAUCGGGAAAAAAAGGGUGGGUGGGAAAGUAUUAUGUUACGCCGUUCGGAUCUGCACUUC	0.547
AGUCCUGUGCUACACAUCGUAUGUACCGAAUCAAAUUUUUUUAAACCCAAAUUUAAAAAAGUAUUAUGUUACGCCGUUCGGAUCUGCACU	-1.05
UCAAGUCCUGUGCUACACAUCGUAUGUACCGAAUCGGCCCGGCCCGGGCCCGGGAAAGUAUUAUGUUACGCCGUUCGGAUCUGCACUUCC	-0.593

Set 3 — technique: protein binding microarray; molecule type: double-stranded DNA, one strand shown; matrix: in vitro; tested at: not given; baseline: not given; direction: higher = stronger binding
Target: Histone acetyltransferase KAT6A, both winged helices, GST fusion (KAT6A, Homo sapiens, UniProt Q92794, residues 1-181)
Setting: 8-mer, flanks averaged, mean of 2 arrays, mostly near background
Residues (chain): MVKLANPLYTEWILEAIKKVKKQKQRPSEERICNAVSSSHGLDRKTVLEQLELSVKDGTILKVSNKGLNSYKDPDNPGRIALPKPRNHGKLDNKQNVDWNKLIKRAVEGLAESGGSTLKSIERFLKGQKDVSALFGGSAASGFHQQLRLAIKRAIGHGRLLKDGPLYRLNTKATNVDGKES
Strand	E-score
GAACCGAC	0.217
CAATACGG	0.16
ACCTAAAG	-0.16
AAATGCGC	0.296
CATTCGAG	-0.0365
GGAGCACC	-0.072
GCCCATCC	-0.129
CCTTATAC	-0.114
GGATTCAA	-0.105
CAACGGAA	0.242
CTGCAAAC	-0.144
CGCTATTA	0.193
ACAGGTGC	-0.0908
GACCCAGC	-0.0786
AACAGACC	0.0479
ACAGTTAT	-0.0511
GACCCTGA	-0.0745
GACGCGTC	0.284
ACGTTCCA	-0.16
TGGCAACA	-0.283
AGGTTGGC	-0.193
CCTGAAAA	-0.0636
GAGCTAAA	-0.2
GCGATAGC	0.104
CTAAAATA	-0.118

Set 4 — target: CCNA1, cyclin fold, Cln2 fusion (human); technique: yeast growth competition, sequencing; matrix: yeast; setting: weak parent motif; baseline: not given; direction: higher = stronger binding
Starting sequence: SLBP docking peptide (human); ARYKRKLLINDFG
Change	normalised enrichment score
ARTKRKLLINDFG [Y3T]	0.313
ARYKRVLLINDFG [K6V]	0.608
ARYKRKLLITDFG [N10T]	0.322
TRYKRKLLINDFG [A1T]	0.676
SRYKRKLLINDFG [A1S]	0.664
ARYKSKLLINDFG [R5S]	0.606
ARYKRKLLINAFG [D11A]	0.552
ARYKRKGLINDFG [L7G]	0.304
ARYKRKLLHNDFG [I9H]	0.366
ARYKRKLLINDDG [F12D]	0.246
ARFKRKLLINDFG [Y3F]	0.362
ARYKRKLLGNDFG [I9G]	0.0552
ARYKRKLLIQDFG [N10Q]	0.355
ARYNRKLLINDFG [K4N]	0.363
ARYKRKLLINDFN [G13N]	0.346
ARYKRKLLNNDFG [I9N]	0.306
ARYKRKLLINLFG [D11L]	0.0358
ARYKRKLLINDFK [G13K]	0.602
ARYKRKLLINDAG [F12A]	0.0642
ARYKRKLFINDFG [L8F]	0.512
ARYKRKLLINDFP [G13P]	0.455

Set 5 — technique: DHFR PCA, deep sequencing; matrix: yeast; added: (+)-ABA 0.032 µM; baseline: wild-type fitted maximum; direction: higher = stronger binding
Target: ABI1, truncated, D143A, DHFR fusion (Arabidopsis thaliana)
Setting: methotrexate growth selection, single substitutions
Starting sequence: PYL1, truncated, DHFR fusion (Arabidopsis thaliana); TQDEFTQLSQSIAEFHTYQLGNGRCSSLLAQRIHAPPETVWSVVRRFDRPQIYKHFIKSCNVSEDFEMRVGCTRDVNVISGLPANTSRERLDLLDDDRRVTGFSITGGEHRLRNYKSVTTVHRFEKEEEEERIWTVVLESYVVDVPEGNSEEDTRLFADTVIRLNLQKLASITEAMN; partner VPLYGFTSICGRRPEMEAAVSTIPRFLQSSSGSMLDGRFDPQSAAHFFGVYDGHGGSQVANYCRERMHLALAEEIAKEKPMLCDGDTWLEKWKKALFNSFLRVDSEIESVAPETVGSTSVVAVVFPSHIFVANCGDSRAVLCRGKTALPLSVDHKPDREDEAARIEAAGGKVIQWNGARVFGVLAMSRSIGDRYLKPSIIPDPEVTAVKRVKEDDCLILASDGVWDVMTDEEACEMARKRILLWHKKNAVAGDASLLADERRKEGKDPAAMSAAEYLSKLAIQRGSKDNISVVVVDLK
Change	relative binding score
W41I	-17.9%
T154G	-5.53%
A84H	69.7%
G107V	3.17%
D95C	-3.59%
I52E	13.1%
E130P	62.9%
E152T	7.68%
Q167I	-2.62%
V43C	-2.88%
V62I	11.9%
V40C	-0.0778%
A13R	33.9%
V62K	1.41%
C25N	-4.49%
W41N	-4.73%
R132D	65.3%
E139F	-17%
P146Q	21.8%
E128W	5.61%

Excerpt of the above (set 5):
Change	relative binding score
I52E	13.1%
V62K	1.41%
V43C	-2.88%
A84H	69.7%
E152T	7.68%
W41N	-4.73%
R132D	65.3%
A13R	33.9%
V40C	-0.0778%
V62I	11.9%
